Measurements from different studies.
Each numbered part is a random draw from the data of one study; scales do not carry over between parts.
Sequence of UniProt Q6ZWH5 (whole entry, looked up): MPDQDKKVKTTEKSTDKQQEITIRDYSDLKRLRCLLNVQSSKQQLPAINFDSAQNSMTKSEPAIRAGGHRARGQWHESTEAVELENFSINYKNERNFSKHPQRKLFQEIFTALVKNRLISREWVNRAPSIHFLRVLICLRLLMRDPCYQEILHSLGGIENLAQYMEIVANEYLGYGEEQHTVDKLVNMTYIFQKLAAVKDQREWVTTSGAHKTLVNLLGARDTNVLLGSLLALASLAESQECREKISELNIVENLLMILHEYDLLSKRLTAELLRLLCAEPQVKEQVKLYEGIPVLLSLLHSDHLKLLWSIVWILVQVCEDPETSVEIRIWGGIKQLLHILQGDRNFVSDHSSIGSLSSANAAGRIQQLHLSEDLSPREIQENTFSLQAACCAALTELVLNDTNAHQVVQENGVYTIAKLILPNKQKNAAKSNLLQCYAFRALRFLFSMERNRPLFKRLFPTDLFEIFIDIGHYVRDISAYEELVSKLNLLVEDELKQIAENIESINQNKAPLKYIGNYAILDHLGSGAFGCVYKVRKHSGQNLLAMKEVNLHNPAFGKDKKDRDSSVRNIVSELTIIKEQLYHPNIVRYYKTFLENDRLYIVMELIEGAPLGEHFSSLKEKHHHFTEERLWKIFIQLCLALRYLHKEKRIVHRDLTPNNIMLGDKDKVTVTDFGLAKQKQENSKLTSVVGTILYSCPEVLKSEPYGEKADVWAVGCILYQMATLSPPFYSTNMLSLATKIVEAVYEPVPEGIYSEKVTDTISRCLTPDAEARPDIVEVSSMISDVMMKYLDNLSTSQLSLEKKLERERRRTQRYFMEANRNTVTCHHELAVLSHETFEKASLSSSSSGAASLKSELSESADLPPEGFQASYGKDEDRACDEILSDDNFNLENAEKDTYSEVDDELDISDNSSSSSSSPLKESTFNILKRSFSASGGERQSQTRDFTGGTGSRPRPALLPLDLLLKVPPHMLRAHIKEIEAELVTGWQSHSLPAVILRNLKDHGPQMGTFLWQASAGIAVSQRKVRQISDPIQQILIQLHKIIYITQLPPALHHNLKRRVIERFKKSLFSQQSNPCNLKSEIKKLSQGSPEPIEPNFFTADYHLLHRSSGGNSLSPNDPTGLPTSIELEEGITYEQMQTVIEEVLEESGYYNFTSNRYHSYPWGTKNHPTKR
Sequence of UniProt P29597 (whole entry, looked up): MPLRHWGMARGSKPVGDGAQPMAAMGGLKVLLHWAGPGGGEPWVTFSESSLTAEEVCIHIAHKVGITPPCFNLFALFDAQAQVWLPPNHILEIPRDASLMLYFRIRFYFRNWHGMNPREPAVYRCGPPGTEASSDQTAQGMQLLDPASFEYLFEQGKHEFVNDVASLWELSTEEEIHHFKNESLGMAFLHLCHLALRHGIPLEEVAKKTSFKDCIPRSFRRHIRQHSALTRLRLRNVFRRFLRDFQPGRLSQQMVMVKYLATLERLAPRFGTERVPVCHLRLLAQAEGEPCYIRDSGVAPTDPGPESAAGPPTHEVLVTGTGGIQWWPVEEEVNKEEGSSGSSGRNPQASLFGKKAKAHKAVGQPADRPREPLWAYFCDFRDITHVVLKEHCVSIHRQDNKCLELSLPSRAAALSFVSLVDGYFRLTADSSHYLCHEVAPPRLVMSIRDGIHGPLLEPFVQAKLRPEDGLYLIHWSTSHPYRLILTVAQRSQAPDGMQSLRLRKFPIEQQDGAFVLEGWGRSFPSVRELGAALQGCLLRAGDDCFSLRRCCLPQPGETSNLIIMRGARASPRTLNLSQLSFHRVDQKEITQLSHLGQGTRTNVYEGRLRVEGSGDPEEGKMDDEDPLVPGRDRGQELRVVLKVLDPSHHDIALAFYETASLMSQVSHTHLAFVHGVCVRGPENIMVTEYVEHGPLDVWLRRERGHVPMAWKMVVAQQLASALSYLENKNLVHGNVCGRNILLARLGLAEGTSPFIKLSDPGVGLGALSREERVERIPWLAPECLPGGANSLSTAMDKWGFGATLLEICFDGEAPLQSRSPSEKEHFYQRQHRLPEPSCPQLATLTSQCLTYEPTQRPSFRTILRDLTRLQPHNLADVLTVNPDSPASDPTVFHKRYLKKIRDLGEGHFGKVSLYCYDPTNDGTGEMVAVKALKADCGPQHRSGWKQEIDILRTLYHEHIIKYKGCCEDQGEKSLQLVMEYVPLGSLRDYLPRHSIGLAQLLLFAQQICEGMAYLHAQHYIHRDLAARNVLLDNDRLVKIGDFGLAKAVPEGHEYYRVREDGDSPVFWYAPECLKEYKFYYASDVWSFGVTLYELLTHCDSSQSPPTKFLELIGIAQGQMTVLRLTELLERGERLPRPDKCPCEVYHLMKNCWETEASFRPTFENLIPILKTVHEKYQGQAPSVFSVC
Sequence of UniProt Q05397 (whole entry, looked up): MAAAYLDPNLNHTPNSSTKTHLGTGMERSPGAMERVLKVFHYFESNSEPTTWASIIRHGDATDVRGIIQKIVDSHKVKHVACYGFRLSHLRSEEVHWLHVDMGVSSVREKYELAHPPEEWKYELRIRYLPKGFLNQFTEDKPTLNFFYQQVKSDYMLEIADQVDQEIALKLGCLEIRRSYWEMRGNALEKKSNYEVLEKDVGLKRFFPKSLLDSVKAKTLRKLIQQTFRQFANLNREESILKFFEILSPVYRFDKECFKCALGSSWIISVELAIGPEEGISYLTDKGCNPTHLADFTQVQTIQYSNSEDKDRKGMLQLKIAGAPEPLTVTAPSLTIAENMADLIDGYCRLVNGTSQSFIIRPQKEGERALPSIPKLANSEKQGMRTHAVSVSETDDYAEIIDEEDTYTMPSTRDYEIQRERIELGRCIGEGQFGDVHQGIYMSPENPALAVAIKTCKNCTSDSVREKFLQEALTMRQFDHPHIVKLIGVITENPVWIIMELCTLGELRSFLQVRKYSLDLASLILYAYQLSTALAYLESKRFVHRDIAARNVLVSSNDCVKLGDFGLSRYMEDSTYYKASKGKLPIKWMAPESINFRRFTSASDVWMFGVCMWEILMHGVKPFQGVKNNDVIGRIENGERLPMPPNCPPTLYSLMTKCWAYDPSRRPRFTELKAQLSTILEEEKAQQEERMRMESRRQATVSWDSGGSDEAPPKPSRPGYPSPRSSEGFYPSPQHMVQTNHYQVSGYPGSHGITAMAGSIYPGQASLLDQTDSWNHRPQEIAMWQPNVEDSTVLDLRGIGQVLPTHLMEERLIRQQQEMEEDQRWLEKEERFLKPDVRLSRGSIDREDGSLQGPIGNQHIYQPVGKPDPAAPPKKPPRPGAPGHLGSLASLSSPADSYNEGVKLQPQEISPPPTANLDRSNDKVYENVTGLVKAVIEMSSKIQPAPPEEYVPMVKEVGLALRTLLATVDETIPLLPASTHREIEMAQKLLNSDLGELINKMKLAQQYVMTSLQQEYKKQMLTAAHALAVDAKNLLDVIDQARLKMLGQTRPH

Study 1
Target: Receptor tyrosine-protein kinase erbB-2 (ERBB2, Homo sapiens, UniProt P04626)
Read-out: enzyme activity
Action: inhibitor
Tested at: 0.5 µM
Baseline: control
| SMILES | remaining activity [%] |
| --- | --- |
| Nc1[nH]nc2nc3ccccc3nc12 | 95.2 |
| COc1cc2ncnc(Nc3ccc(Oc4ccccc4)cc3)c2cc1OC | 29.5 |
| O=C(Nc1cccc(Nc2cc(Nc3cccc(C(F)(F)F)c3)ncn2)c1)C1CC1 | 82.5 |
| Cc1cccc(-c2[nH]c(C(C)(C)C)nc2-c2ccc3c(c2)OCO3)n1 | 102 |
| NCCNc1ncc(C(N)=O)c(Nc2cccc(C(F)(F)F)c2)n1 | 91.1 |
| CC(C)[C@H](CO)Nc1nc(Nc2cc(N)cc(Cl)c2)c2ncn(C(C)C)c2n1 | 92.9 |
| OCC(O)CCON=C1C(c2c(O)[nH]c3ccccc23)=Nc2ccccc21 (stereo not shown) | 95.3 |
| CCOC(=O)c1c(C)[nH]c(/C=C2\C(=O)Nc3ccccc32)c1C | 101 |
| O=S(=O)(c1cccc2cnccc12)N1CCCNCC1 | 108 |
| COc1ccc(C(=O)Nc2sc3c(c2C(N)=O)CCCC3)cc1OC | 93.3 |
| Cn1c2ccccc2c2c3c(c4c5ccccc5n(CCC#N)c4c21)CNC3=O | 107 |
| N#CC(C#N)=C(N)/C(C#N)=C/c1ccc(O)cc1 | 90.1 |
| Cc1ccc(Nc2nccc(N(C)c3ccc4c(C)n(C)nc4c3)n2)cc1S(N)(=O)=O | 103 |
| O=C(CCCc1ccc(-c2ccccc2F)cc1)Nc1ccc(O)cc1 | 101 |
| CNC(=O)c1cc(Oc2ccc(NC(=O)Nc3ccc(Cl)c(C(F)(F)F)c3)cc2)ccn1 | 103 |
| COc1cc2nccc(Oc3ccc(NC(=S)NC(=O)c4ccccc4C)cc3)c2cc1OC | 102 |
| O=c1c2ccccc2[nH]c(=S)n1CCN1CCC(=C(c2ccc(F)cc2)c2ccc(F)cc2)CC1 | 98.8 |
| O=C1NC(=O)C(c2cn(CCCO)c3ncccc23)=C1c1cnccn1 | 106 |

Study 2
Cell line: A-375
Tested at: 100 µM
Time: 36 h
| Structure (SMILES) | viability [%] |
| --- | --- |
| O=c1cc[nH]c(=O)[nH]1 | 102 |
| CC[C@H](Nc1ncnc2[nH]cnc12)c1nc2cccc(F)c2c(=O)n1-c1ccccc1 | 92.4 |
| OCc1ccccc1 | 105 |
| CCN1CCC[C@H]1CNC(=O)c1cc(S(N)(=O)=O)ccc1OC | 104 |
| CNCc1cc(-c2ccccc2F)n(S(=O)(=O)c2cccnc2)c1 | 87 |
| CC(=O)Nc1ccc(CC(=O)O)cc1 | 111 |
| CCOC(=O)c1ncn2c1CN(C)C(=O)c1cc(F)ccc1-2 | 99.1 |

Study 3
SMILES: CCCCN(CCCC)C(=O)CN1C[C@@H](c2cc(OC)c3c(c2)OCO3)[C@H](C(=O)O)[C@H]1CC(C)(C)CCC
Read-out: cell-free assay
Technique: competition with immobilised ligand
Tested at: 1 µM
| target | remaining binding [%] |
| --- | --- |
| Non-receptor tyrosine-protein kinase TYK2, JH2 (TYK2, Homo sapiens, UniProt P29597) | 95.8 |
| NEK10 (Homo sapiens, UniProt Q6ZWH5) | 100 |
| PTK2 (Homo sapiens, UniProt Q05397) | 100 |
| MAP3K19 (Homo sapiens, UniProt Q56UN5) | 100 |
| FLT3 (Homo sapiens, UniProt P36888, K663Q) | 80.1 |
| EPHB2 (Homo sapiens, UniProt P29323) | 73 |
| HIPK4 (Homo sapiens, UniProt Q8NE63) | 100 |

Study 4
Species: mouse
Matrix: microsomes or S9
Tested at: 2 µM
Time: 0.5 h
| Structure (SMILES) | remaining compound [%] |
| --- | --- |
| COc1cc(OC)c2[nH]c(C(=O)OCc3ncc(Cl)n3C)cc2c1 | 0.342 |
| Cc1cc(N)cc(Br)c1OCc1ccccc1 | 5.55 |
| Cn1c(=O)nc(O)c2c1nc(NCCN)n2CC(O)COc1ccccc1 (stereo not shown) | 40 |
| O=C(CC1NCCNC1=O)OCCc1ccccc1 (stereo not shown) | 33.3 |
| CCOC(=O)C1=C(n2cc(-c3ccccc3)nn2)Cc2ccccc2O1 | 79.5 |

Repeated from above (study 1):
| SMILES | remaining activity [%] |
| --- | --- |
| CCOC(=O)c1c(C)[nH]c(/C=C2\C(=O)Nc3ccccc32)c1C | 101 |
| O=S(=O)(c1cccc2cnccc12)N1CCCNCC1 | 108 |
| COc1ccc(C(=O)Nc2sc3c(c2C(N)=O)CCCC3)cc1OC | 93.3 |
